# Results from different studies.
# Protocols differ between the studies behind these lines. “And” joins repeats or separate records; there may be more than shown. Numbers after ± are the reported error.
Structure (SMILES),tested on,test,system,setting,scale,quantity,result
NC(=O)N/N=C/c1ccc(OCc2cccc(F)c2)cc1,IMR-32,,,"50 µg/mL, 24 h",higher = more activity,catalase activity (OD450),0.033 a.u.
CC[C@H](C)[C@H](NC(=O)CNC(=O)[C@H](Cc1ccc(O)cc1)NC(=O)[C@H](CO)NC(=O)[C@H](Cc1ccc(O)cc1)NC(=O)[C@@H](NC(=O)[C@H](CC(=O)O)NC(=O)[C@H](CO)NC(=O)[C@H](CCC(N)=O)NC(=O)[C@H](Cc1ccccc1)NC(=O)[C@H](CO)NC(=O)[C@H](Cc1ccccc1)NC(=O)[C@@H]1CCCN1C(=O)[C@H](CC(N)=O)NC(=O)[C@H](CC(N)=O)NC(=O)[C@H](CC(=O)O)NC(=O)[C@H](CCC(N)=O)NC(=O)[C@@H]1CCCN1C(=O)[C@H](CCCNC(=N)N)NC(=O)[C@H](CCCNC(=N)N)NC(=O)[C@H](CCCNC(=N)N)NC(=O)[C@H](CCC(N)=O)NC(=O)[C@H](CCCNC(=N)N)NC(=O)[C@H](CCCNC(=N)N)NC(=O)[C@H](CCCCN)NC(=O)[C@H](CCCCN)NC(=O)[C@H](CCCNC(=N)N)NC(=O)CN)C(C)C)C(=O)N[C@H](C(=O)N[C@@H](CC(C)C)C(N)=O)C(C)C,MCF7,"immunoblot densitometry, measured: phospho-c-Raf Ser338",,"5 µM, 48 h, unit not given",reference: 0 µM,phospho-c-Raf level,0.58 and 0.684
CC(C)=CCc1c(O)cc2c(c1O)C(=O)CC(c1ccc(O)cc1)O2 (centres unmarked),HeLa,"cell growth or viability, MTT",,"100 µM, 48 h",,inhibition,89.3%
CC(C)C[C@H](NC(=O)[C@H](CC(=O)O)NC(=O)CNC(=O)[C@@H](N)CCCNC(=N)N)C(=O)N[C@@H](C)C(=O)N[C@H](C(=O)N[C@@H](CC(C)C)C(=O)N[C@@H](CCCNC(=N)N)C(=O)N[C@@H](CCC(N)=O)C(=O)N[C@@H](CC(C)C)C(=O)N[C@@H](C)C(=O)N[C@@H](CCC(N)=O)C(=O)N[C@@H](CCC(=O)O)C(=O)N[C@@H](CC(=O)O)C(=O)NCC(=O)N[C@H](C(=O)N[C@H](C(=O)NCC(=O)N[C@H](C(=O)N[C@@H](CCCNC(=N)N)C(=O)NCCOCCOCCOCCOCCOCCOCCOCCOCCOCCOCCOCCOCCC(=O)N[C@@H](CS)C(N)=O)C(C)C)C(C)C)C(C)C)[C@@H](C)O,HCC1171 lung carcinoma,"cell binding, phage binding, measured: output/input phage",,"10 min, 37 °C",reference: control phage,selectivity ratio,2.9 ± 1.5
COc1ccccc1-c1ccncc1C(=O)Nc1nnc(OCc2ccc(Cl)cc2)s1,DLD-1 BRCA2-/-,,,"0.125 µM, mean of 3 replicates",reference: untreated,colony survival,70.6%
CC1CCC2C(C)C(OC(=O)CCC(=O)N3CCC(Nc4ccc(S(=O)(=O)NC(=O)c5ccc(N6CCN(CC7=C(c8ccc(Cl)cc8)CC(C)(C)CC7)CC6)cc5Oc5cnc6[nH]ccc6c5)cc4[N+](=O)[O-])CC3)OC3OC4(C)CCC1C32OO4 (centres unmarked),THP-1,"annexin V/PI flow cytometry, measured: annexin V-/PI-",,"0.2 µM, 24 h",,viable cells,83.1%
C=CCN1C(=O)C(CC=C)(C(=O)OCC)Oc2cc(F)ccc21 (centres unmarked),HaCaT,"cell growth or viability, CCK-8",,"50 µM, 72 h",,inhibition,0.58%
O=C1NC2(CC2)COc2ncc(F)cc2[C@H]2COCCN2c2ccn3ncc1c3n2,,,"Sprague-Dawley rat, female, ovaries","oral, 5 mg/kg/day, 4 weeks",,organ weight,0.129 ± 0.021 g
CC(=O)NCSC[C@H](NC(=O)[C@@H]1CCCN1C(=O)[C@H](C)NC(=O)[C@@H](NC(=O)CNC(=O)[C@@H](NC(=O)[C@H](Cc1c[nH]c2ccccc12)NC(=O)[C@H](C)NC(=O)CNC(=O)[C@H](CO)NC(=O)[C@H](C)NC(=O)[C@@H]1CCCN1C(=O)[C@H](Cc1c[nH]c2ccccc12)NC(=O)[C@H](C)NC(=O)[C@H](C)NC(=O)[C@@H](N)Cc1ccc(O)cc1)[C@@H](C)O)[C@@H](C)O)C(=O)N[C@@H](CO)C(=O)N[C@@H](C)C(=O)NCC(=O)N[C@H](C(=O)NCCOCCOCCOCCOCCOCCOCCOCCOCCOCCOCCOCCOCCC(=O)N[C@@H](CS)C(N)=O)[C@@H](C)O,H358 lung adenocarcinoma,"cell binding, phage binding, measured: output/input phage",,"10 min, 37 °C",reference: control phage,selectivity ratio,43 ± 13
C#CCN1C(=O)C(CC#C)(C(=O)OCC)Oc2ccccc21 (centres unmarked),HaCaT,"cell growth or viability, CCK-8",,"0.78 µM, 72 h",,inhibition,0.27%
CC(C)(C)C(=O)OCOP(=O)(OCOC(=O)C(C)(C)C)C1CCCN(O)C1=O (centres unmarked),SF-295,,,,,CC50,> 100 µM

# Repeated from above:
Structure (SMILES),tested on,test,system,setting,scale,quantity,result
CC(C)C[C@H](NC(=O)[C@H](CC(=O)O)NC(=O)CNC(=O)[C@@H](N)CCCNC(=N)N)C(=O)N[C@@H](C)C(=O)N[C@H](C(=O)N[C@@H](CC(C)C)C(=O)N[C@@H](CCCNC(=N)N)C(=O)N[C@@H](CCC(N)=O)C(=O)N[C@@H](CC(C)C)C(=O)N[C@@H](C)C(=O)N[C@@H](CCC(N)=O)C(=O)N[C@@H](CCC(=O)O)C(=O)N[C@@H](CC(=O)O)C(=O)NCC(=O)N[C@H](C(=O)N[C@H](C(=O)NCC(=O)N[C@H](C(=O)N[C@@H](CCCNC(=N)N)C(=O)NCCOCCOCCOCCOCCOCCOCCOCCOCCOCCOCCOCCOCCC(=O)N[C@@H](CS)C(N)=O)C(C)C)C(C)C)C(C)C)[C@@H](C)O,HCC1171 lung carcinoma,"cell binding, phage binding, measured: output/input phage",,"10 min, 37 °C",reference: control phage,selectivity ratio,2.9 ± 1.5
COc1ccccc1-c1ccncc1C(=O)Nc1nnc(OCc2ccc(Cl)cc2)s1,DLD-1 BRCA2-/-,,,"0.125 µM, mean of 3 replicates",reference: untreated,colony survival,70.6%
